Experimental data gathered from unrelated publications.
Numbers after ± are the reported error.
Sequence of UniProt P11509 (whole entry, looked up): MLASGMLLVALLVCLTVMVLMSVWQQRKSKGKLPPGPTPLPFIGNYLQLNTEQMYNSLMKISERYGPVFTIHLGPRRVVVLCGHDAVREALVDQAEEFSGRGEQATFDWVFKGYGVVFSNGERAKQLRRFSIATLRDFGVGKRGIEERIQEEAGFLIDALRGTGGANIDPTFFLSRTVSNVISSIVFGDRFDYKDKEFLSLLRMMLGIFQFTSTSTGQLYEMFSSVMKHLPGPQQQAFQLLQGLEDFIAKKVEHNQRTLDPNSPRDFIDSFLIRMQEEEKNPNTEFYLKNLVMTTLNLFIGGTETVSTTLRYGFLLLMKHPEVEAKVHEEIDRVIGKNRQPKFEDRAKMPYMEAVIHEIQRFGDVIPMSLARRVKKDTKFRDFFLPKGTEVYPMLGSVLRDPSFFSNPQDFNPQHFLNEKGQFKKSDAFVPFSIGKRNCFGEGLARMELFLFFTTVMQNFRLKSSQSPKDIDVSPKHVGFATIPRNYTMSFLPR
Sequence of UniProt O75469 (whole entry, looked up): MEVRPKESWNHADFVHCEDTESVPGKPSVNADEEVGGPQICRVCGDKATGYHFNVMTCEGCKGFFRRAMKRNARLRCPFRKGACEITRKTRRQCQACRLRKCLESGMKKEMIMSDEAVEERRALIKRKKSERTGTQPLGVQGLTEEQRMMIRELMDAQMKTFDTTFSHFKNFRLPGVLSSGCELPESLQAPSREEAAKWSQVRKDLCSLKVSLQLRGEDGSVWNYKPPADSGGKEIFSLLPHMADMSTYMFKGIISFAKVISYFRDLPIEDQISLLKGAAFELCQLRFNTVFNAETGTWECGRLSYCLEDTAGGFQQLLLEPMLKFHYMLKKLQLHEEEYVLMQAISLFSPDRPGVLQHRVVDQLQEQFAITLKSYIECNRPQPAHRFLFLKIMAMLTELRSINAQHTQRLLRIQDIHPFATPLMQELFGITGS

SMILES | tested on | assay | system | setting | scale | endpoint | result
Clc1cc(Cl)c(-c2cccc(Cl)c2Cl)cc1Cl | PXR (polar bear) | reporter gene, agonist, luciferase | COS-7 | 24 h | reference: DMSO | fold induction | 2.7 ± 0.6 fold
CN[C@@](C)(C[18F])C(=O)O | DU-145 tumour model |  | host not given, kidney | 30 min, tumour-bearing |  | tracer uptake | 12 %ID/g
C[C@H](Cn1cnc2c(N)ncnc21)OCP(=O)(O)O | hCMEC/D3 |  |  | 5 µM, 1 h, 37 °C |  | intracellular accumulation | 5.91 ± 1.74 pmol/mg protein
N[C@]1(c2ccccc2Cl)CCC[C@@H](O)C1=O |  |  | female CD-1 mice, plasma | intraperitoneal, 5 mg/kg |  | dose-normalized Cmax | 142 ± 9.4 ng/mL per mg/kg
Clc1ccc(-c2c(Cl)c(Cl)c(Cl)c(Cl)c2Cl)cc1Cl | NR1I2 (Homo sapiens, UniProt O75469) | reporter gene, agonist, luciferase | COS-7 | 24 h | reference: DMSO | fold induction | 4.5 ± 0.5 fold
N[C@@]1(c2ccccc2Cl)C[C@H](O)CCC1=O |  |  | male CD-1 mice, plasma | intraperitoneal, 5 mg/kg |  | dose-normalized Cmax | 367 ± 92.1 ng/mL per mg/kg
[123I]c1cncc(OC[C@@H]2CCN2)c1 |  | SPECT | human, temporal lobe | intravenous bolus plus infusion, 8.1 mCi | reference: plasma | tissue/plasma ratio | 15
C=C1C[C@@H]2[C@H](CC[C@]3(C)C(=O)CC[C@@H]23)[C@@]2(C)C=CC(=O)C=C12 |  | LC-MS/MS | postmenopausal breast cancer women, plasma | oral, 25 mg/day, 2 h, CYP1A1*2 heterozygous |  | median plasma concentration | 8.3 ng/mL
Clc1ccc(Cl)c(-c2cc(Cl)c(Cl)cc2Cl)c1 | PXR (polar bear) | reporter gene, agonist, luciferase | COS-7 | 24 h | reference: DMSO | fold induction | 1.8 ± 0.4 fold
CN/C(=N\[N+](=O)[O-])NCc1cnc(Cl)s1 | Folsomia candida | survival, OECD 232 | LUFA 2.2 soil | 28 days |  | LC50 | 0.07 mg/kg dry soil
Cc1ncc2n1-c1ccc(Cl)cc1C(c1ccccc1F)=NC2 |  |  | human CYP3A5 expressers, serum | geometric mean, with: ketoconazole 400 mg |  | terminal half-life | 8.77 h
COc1ccc2c(c1)[C@]13CCCC[C@@H]1[C@H](C2)N(C)CC3 |  |  | Wistar rat, both sexes, plasma | oral, 5 mg/kg, 2 h after pretreatment, with: single quinidine 2.5 mg/kg |  | AUC(0-inf) | 128 ± 12.2 ng·h/mL
Brc1c(Br)c(Br)c(Oc2c(Br)c(Br)c(Br)c(Br)c2Br)c(Br)c1Br | PXR (polar bear) | reporter gene, agonist, luciferase | COS-7 | 24 h | reference: DMSO | fold induction | 1.9 ± 0.3 fold
CSCC[C@@H]1NC(=O)[C@H](CC(=O)O)NC(=O)CNC(=O)[C@H](CCCNC(=N)N)NC(=O)[C@H](C)NC(=O)[C@H](CCC(=O)O)NC(=O)[C@H](CCCNC(=N)N)NC(=O)[C@@H]2CSSC[C@@H]3NC(=O)[C@H](CO)NC(=O)[C@H]([C@@H](C)O)NC(=O)[C@@H]4CCCN4C(=O)[C@H](C)NC(=O)[C@H](Cc4c[nH]c5ccccc45)NC(=O)[C@H](CC(=O)O)NC(=O)CNC(=O)[C@H](CCCNC(=N)N)NC(=O)CNC(=O)[C@H](CCC(N)=O)NC(=O)[C@@H]4CCCN4C(=O)[C@@H](NC(=O)CNC(=O)C(C)F)CSSC[C@H](NC(=O)CNC(=O)[C@H](C)NC(=O)[C@H](CC(C)C)NC(=O)[C@H](CSSC[C@@H](C(=O)NCC(N)=O)NC(=O)[C@H]([C@@H](C)O)NC(=O)[C@H](CCCNC(=N)N)NC(=O)[C@@H]4CCCN4C1=O)NC(=O)[C@H](CC(=O)O)NC(=O)[C@H](CO)NC(=O)[C@H](CC(=O)O)NC(=O)[C@H](CCC(N)=O)NC(=O)[C@H](CO)NC3=O)C(=O)N[C@@H](C(C)C)C(=O)N2 (some centres unmarked) [fluorine-18 labelled] |  |  | nude mice U-87 MG xenograft, liver | intravenous, 0.5 h |  | tissue uptake | 0.68 ± 0.12 %ID/g
C=C(C)[C@@H]1CCC(C)=C[C@H]1c1c(O)cc(CCCCC)cc1O | Cytochrome P450 2A6 (CYP2A6, Homo sapiens, UniProt P11509) | nicotine demethylation to nornicotine, inhibitor | microsomes of overexpressing HEK293 cells | 10 µM, 30 min, pH 7.4, with: nicotine 50 µM |  | inhibition | 75%
Clc1ccc(C(c2ccc(Cl)cc2)C(Cl)(Cl)Cl)cc1 | PXR (polar bear) | reporter gene, agonist, luciferase | COS-7 | 24 h | reference: DMSO | fold induction | 4.1 ± 0.6 fold
CN1CC[C@]23c4c5ccc(O)c4O[C@H]2[C@@H](O[C@@H]2O[C@H](C(=O)O)[C@@H](O)[C@H](O)[C@H]2O)C=C[C@H]3[C@H]1C5 | MDCK II |  |  | 10.0 µg/mL, 100 min, DMEM buffer |  | Papp | 2.15 ± 0.06 ×10⁻⁶ cm/s
CCCC(CCC)C(=O)Nc1ccccc1O | Artemia franciscana |  | larvae, artificial seawater | 0.10 mM, 48 h, 0.17% DMSO | reference: DMSO control | mortality | 7.76 ± 4.67%
C[C@H]1CNCCc2ccc(Cl)cc21 |  |  | male Sprague-Dawley rat, plasma | subcutaneous, pimavanserin 0.5 + lorcaserin 0.5 mg/kg, pimavanserin 15 min earlier |  | AUC(0-inf) | 28.5 ± 1.88 ng·h/mL
C/C(=N\C#N)N(C)Cc1ccc(Cl)nc1 | Folsomia candida | reproduction, OECD 232 | LUFA 2.2 soil | 28 days |  | EC20 | 0.06 mg/kg dry soil
CCCCCCCCCCc1cn(Cc2cn([C@H]3C[C@H](OC(=O)OC[C@H]4O[C@@H](n5cc(C)c(=O)[nH]c5=O)C[C@@H]4N=[N+]=[N-])[C@@H](COC(=O)OC[C@H]4O[C@@H](n5cc(C)c(=O)[nH]c5=O)C[C@@H]4N=[N+]=[N-])O3)c(=O)[nH]c2=O)nn1 | MT4 | cell growth or viability |  |  |  | CC50 | > 300 µM
CN1COCN(Cc2cnc(Cl)s2)/C1=N\[N+](=O)[O-] | Folsomia candida | reproduction, OECD 232 | LUFA 2.2 soil | 28 days |  | EC20 | 0.1 mg/kg dry soil
Clc1ccc(-c2ccc(Cl)cc2Cl)c(Cl)c1 | PXR (polar bear) | reporter gene, agonist, luciferase | COS-7 | 24 h | reference: DMSO | fold induction | 1.4 ± 0.4 fold
CN1CC[C@@]23CCCC[C@@H]2[C@@H]1Cc1ccc(O)cc13 |  |  | Wistar rat, both sexes, plasma | oral, 5 mg/kg DEM, DEM 2 h after pretreatment, with: QN 2.5 mg/kg single pretreatment |  | AUC(0-inf) | 56.9 ± 11.8 ng·h/mL
O=[N+]([O-])NC1=NCCN1Cc1ccc(Cl)nc1 | Folsomia candida | reproduction, OECD 232 | LUFA 2.2 soil | 28 days |  | EC20 | 0.15 mg/kg dry soil
C[C@@H]1CCO[C@H]2Cn3cc(C(=O)NCc4ccc(F)cc4F)c(=O)c(O)c3C(=O)N12 | hCMEC/D3 |  |  | 5 µM, 1 h |  | intracellular concentration | 14.2 ± 0.62 ng/mL

Some of these lines once more:
SMILES | tested on | assay | system | setting | scale | endpoint | result
CSCC[C@@H]1NC(=O)[C@H](CC(=O)O)NC(=O)CNC(=O)[C@H](CCCNC(=N)N)NC(=O)[C@H](C)NC(=O)[C@H](CCC(=O)O)NC(=O)[C@H](CCCNC(=N)N)NC(=O)[C@@H]2CSSC[C@@H]3NC(=O)[C@H](CO)NC(=O)[C@H]([C@@H](C)O)NC(=O)[C@@H]4CCCN4C(=O)[C@H](C)NC(=O)[C@H](Cc4c[nH]c5ccccc45)NC(=O)[C@H](CC(=O)O)NC(=O)CNC(=O)[C@H](CCCNC(=N)N)NC(=O)CNC(=O)[C@H](CCC(N)=O)NC(=O)[C@@H]4CCCN4C(=O)[C@@H](NC(=O)CNC(=O)C(C)F)CSSC[C@H](NC(=O)CNC(=O)[C@H](C)NC(=O)[C@H](CC(C)C)NC(=O)[C@H](CSSC[C@@H](C(=O)NCC(N)=O)NC(=O)[C@H]([C@@H](C)O)NC(=O)[C@H](CCCNC(=N)N)NC(=O)[C@@H]4CCCN4C1=O)NC(=O)[C@H](CC(=O)O)NC(=O)[C@H](CO)NC(=O)[C@H](CC(=O)O)NC(=O)[C@H](CCC(N)=O)NC(=O)[C@H](CO)NC3=O)C(=O)N[C@@H](C(C)C)C(=O)N2 (some centres unmarked) [fluorine-18 labelled] |  |  | nude mice U-87 MG xenograft, liver | intravenous, 0.5 h |  | tissue uptake | 0.68 ± 0.12 %ID/g
N[C@]1(c2ccccc2Cl)CCC[C@@H](O)C1=O |  |  | female CD-1 mice, plasma | intraperitoneal, 5 mg/kg |  | dose-normalized Cmax | 142 ± 9.4 ng/mL per mg/kg
Brc1c(Br)c(Br)c(Oc2c(Br)c(Br)c(Br)c(Br)c2Br)c(Br)c1Br | PXR (polar bear) | reporter gene, agonist, luciferase | COS-7 | 24 h | reference: DMSO | fold induction | 1.9 ± 0.3 fold
Clc1ccc(-c2c(Cl)c(Cl)c(Cl)c(Cl)c2Cl)cc1Cl | NR1I2 (Homo sapiens, UniProt O75469) | reporter gene, agonist, luciferase | COS-7 | 24 h | reference: DMSO | fold induction | 4.5 ± 0.5 fold
